Measurements pooled from the literature.
Protocols differ between the studies behind these lines. Several values in a cell are separate wells, animals, samples, runs or records.
Sequence of UniProt P02911 (whole entry, looked up): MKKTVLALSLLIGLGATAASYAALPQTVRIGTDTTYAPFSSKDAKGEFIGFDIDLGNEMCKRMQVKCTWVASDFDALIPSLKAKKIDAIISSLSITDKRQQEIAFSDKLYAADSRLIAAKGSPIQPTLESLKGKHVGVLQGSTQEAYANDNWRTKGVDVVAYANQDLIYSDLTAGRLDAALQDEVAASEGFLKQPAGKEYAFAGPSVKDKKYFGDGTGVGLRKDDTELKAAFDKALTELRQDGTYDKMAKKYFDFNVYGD
Sequence of UniProt P43354 (whole entry, looked up): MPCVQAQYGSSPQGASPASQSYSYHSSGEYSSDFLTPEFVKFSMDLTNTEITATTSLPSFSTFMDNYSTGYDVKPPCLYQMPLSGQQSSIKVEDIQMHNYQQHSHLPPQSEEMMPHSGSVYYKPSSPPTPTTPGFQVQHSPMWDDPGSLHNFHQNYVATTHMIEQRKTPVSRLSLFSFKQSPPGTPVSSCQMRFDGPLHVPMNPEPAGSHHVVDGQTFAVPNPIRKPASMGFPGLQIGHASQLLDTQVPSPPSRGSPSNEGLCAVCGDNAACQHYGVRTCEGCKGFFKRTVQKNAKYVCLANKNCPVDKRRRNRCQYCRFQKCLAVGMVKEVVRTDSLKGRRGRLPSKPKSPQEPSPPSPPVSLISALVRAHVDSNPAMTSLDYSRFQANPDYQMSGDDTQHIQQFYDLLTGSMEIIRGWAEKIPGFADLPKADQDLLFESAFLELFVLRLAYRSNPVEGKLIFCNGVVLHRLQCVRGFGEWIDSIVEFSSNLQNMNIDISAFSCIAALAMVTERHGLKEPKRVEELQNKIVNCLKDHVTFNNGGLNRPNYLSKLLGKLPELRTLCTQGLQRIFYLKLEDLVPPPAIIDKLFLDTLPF
Sequence of UniProt Q8IU85 (whole entry, looked up): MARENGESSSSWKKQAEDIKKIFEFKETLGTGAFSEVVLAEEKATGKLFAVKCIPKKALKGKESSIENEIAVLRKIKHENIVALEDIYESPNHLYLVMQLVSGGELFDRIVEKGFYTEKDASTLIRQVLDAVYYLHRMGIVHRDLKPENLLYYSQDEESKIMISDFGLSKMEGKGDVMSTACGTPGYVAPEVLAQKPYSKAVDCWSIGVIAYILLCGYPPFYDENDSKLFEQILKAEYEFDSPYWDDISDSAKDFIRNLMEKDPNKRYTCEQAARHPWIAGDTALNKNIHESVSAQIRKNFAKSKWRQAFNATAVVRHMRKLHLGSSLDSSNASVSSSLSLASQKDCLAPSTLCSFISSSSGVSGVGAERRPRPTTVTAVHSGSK
Sequence of UniProt P35520 (whole entry, looked up): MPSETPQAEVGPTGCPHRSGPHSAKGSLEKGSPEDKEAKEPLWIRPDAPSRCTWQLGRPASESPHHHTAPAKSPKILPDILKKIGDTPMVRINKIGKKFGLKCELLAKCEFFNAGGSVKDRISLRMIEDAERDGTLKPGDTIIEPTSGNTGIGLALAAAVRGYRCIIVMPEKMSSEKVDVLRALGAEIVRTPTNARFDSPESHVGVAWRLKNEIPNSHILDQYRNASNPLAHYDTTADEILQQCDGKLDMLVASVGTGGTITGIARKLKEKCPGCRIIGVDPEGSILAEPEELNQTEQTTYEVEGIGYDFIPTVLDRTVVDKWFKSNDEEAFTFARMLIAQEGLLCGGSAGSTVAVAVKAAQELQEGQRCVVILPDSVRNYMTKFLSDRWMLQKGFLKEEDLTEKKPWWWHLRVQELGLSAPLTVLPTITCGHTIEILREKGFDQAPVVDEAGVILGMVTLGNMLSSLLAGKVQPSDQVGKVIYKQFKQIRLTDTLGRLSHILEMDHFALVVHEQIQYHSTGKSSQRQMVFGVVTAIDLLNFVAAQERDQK
Sequence of UniProt Q04609 (whole entry, looked up): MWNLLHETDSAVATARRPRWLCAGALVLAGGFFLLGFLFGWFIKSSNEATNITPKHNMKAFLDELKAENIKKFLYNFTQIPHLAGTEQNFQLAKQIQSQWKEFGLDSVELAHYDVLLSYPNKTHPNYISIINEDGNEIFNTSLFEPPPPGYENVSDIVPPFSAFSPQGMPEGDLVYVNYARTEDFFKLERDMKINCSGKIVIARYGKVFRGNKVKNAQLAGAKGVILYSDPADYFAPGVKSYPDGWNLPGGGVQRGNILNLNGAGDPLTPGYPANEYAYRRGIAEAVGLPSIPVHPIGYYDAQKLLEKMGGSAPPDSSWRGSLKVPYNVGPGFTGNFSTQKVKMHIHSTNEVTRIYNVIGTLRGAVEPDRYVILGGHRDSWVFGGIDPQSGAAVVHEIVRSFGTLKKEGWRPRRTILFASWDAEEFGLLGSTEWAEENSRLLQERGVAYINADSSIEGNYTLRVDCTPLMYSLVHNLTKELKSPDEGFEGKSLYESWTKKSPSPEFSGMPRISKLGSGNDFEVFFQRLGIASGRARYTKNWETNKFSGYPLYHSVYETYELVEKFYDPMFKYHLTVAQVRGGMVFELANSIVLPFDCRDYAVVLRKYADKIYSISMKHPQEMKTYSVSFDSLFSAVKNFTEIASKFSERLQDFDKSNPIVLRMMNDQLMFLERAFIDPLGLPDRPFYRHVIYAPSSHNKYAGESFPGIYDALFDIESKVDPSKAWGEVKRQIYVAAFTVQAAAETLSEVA
Sequence of UniProt P45985 (whole entry, looked up): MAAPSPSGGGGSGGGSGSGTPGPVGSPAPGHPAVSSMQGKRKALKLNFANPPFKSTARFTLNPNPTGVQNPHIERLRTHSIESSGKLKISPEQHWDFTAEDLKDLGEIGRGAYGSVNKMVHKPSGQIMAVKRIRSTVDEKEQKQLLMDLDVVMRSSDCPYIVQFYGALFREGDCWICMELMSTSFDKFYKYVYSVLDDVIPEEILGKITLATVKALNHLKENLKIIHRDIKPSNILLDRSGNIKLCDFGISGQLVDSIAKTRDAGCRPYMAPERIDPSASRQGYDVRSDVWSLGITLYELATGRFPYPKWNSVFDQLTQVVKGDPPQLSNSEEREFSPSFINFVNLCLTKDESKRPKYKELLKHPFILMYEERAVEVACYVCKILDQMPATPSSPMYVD
Sequence of UniProt P09417 (whole entry, looked up): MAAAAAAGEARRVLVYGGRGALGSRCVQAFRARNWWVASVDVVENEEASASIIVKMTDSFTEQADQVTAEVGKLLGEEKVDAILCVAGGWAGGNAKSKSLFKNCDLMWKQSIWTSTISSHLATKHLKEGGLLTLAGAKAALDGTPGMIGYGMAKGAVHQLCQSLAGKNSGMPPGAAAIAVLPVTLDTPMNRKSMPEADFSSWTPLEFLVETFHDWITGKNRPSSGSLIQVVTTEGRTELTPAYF
Sequence of UniProt O60331 (whole entry, looked up): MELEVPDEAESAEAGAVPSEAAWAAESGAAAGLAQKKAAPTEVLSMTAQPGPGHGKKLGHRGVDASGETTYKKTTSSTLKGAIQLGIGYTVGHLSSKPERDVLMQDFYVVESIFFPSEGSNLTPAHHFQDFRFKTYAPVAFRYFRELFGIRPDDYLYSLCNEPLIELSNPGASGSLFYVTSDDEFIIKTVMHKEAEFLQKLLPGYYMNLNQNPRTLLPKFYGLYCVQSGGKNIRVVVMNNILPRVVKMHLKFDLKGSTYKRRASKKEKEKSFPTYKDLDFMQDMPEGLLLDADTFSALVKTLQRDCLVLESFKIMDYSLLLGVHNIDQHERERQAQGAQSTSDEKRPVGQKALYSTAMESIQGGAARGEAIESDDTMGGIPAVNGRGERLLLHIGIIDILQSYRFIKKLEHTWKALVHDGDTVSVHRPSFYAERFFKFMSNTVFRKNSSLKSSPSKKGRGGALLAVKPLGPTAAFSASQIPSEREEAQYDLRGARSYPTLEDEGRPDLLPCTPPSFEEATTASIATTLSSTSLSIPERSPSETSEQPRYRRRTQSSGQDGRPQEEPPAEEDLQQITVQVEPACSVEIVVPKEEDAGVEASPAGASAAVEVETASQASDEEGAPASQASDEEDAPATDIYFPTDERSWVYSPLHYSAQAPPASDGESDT
Sequence of UniProt Q91Y77 (whole entry, looked up): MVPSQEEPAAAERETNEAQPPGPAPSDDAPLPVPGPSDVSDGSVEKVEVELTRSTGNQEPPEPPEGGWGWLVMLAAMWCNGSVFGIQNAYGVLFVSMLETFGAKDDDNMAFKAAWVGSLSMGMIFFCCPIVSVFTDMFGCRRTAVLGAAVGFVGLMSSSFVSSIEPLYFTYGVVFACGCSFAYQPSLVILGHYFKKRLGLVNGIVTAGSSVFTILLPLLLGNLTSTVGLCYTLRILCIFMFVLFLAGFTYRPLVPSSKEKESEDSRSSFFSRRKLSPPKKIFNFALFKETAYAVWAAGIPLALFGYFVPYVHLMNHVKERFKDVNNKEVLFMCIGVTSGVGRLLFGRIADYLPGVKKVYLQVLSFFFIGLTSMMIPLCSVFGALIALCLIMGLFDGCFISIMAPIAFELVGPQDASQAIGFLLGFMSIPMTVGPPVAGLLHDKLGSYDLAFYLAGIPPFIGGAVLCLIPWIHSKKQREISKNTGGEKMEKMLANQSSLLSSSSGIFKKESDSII
Sequence of UniProt P37231 (whole entry, looked up): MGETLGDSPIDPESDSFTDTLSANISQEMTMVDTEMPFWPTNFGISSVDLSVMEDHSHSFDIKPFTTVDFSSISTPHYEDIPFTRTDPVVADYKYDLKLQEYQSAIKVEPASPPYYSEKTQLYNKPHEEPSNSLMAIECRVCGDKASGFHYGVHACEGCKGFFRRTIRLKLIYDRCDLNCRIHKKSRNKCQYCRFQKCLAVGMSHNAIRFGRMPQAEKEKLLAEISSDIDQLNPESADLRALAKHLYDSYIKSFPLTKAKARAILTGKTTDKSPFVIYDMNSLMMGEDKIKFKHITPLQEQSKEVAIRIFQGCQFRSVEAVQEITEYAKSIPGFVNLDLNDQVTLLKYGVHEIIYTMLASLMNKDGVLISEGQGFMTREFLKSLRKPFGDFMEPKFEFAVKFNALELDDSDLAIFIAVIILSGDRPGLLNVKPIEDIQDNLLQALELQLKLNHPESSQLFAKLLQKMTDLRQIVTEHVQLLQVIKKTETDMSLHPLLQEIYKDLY

Compound | target | assay | conditions | endpoint | result
NC(=O)C1=CN([C@@H]2O[C@H](COP(=O)(O)OP(=O)(O)OC[C@H]3O[C@@H](n4cnc5c(N)ncnc54)[C@H](O)[C@@H]3O)[C@@H](O)[C@H]2O)C=CC1 | Dihydropteridine reductase (Homo sapiens, UniProt P09417) | binding, SPR |  | Kd | 56 nM
CCCc1nc2c(C)cc(-c3nc4ccccc4n3C)cc2n1Cc1ccc(-c2ccccc2C(=O)O)cc1 | Peroxisome proliferator-activated receptor gamma (PPARG, Homo sapiens, UniProt P37231) | binding, ITC |  | Kd | 7960 nM
Cc1cc(Nc2cc3ncccc3c(N[C@@H]3C[C@H]4CC[C@@H](C3)N4CCC#N)n2)n[nH]1 | Calcium/calmodulin-dependent protein kinase type 1D (CAMK1D, Homo sapiens, UniProt Q8IU85) | binding, competition with immobilised ligand |  | Kd | 110 nM
CNc1ncc2c(/C=C/C(=O)N3CCC(OC)CC3)nn(Cc3cccc(C(F)(F)F)c3)c2n1 | Cyclin-dependent kinase 2, with cyclin D1 (CDK2, Homo sapiens, UniProt P24941) | enzyme activity, inhibitor, radiometric | 1 µM | remaining activity | 98%
Cc1cnc(-c2ccc(-c3ccc(NC(=O)Nc4c(F)cc(F)cc4F)cc3F)c3c2C(=O)NC3)[nH]1 | Dual specificity mitogen-activated protein kinase kinase 4 (MAP2K4, Homo sapiens, UniProt P45985) | binding, competition with immobilised ligand |  | Kd | 11 nM
FC(F)OC(Cl)C(F)(F)F (stereo not shown) | Cystathionine beta-synthase (CBS, Homo sapiens, UniProt P35520) | binding, ITC |  | Kd | 16600 nM
CCN1CCN(c2cc(N3CCN(CC)CC3)nc(NCCNc3ccnc4cc(Cl)ccc34)n2)CC1 | Nuclear receptor subfamily 4 group A member 2 (Homo sapiens, UniProt P43354) | binding, ITC |  | Kd | 1500 nM and 2500 nM
COc1cc(-c2cncc3c2CN(C)Cc2cc(N4CCNCC4)ccc2-3)cc(OC)c1OC | Phosphatidylinositol 4-phosphate 5-kinase type-1 gamma (PIP5K1C, Homo sapiens, UniProt O60331) | enzyme activity, inhibitor | 1 µM | remaining activity | 100%
N=C(N)NCCC[C@H](N)C(=O)O | argT (Salmonella enterica, UniProt P02911) | binding, ITC |  | Kd | 20.8 nM and 10.2 nM
COCc1nc2cnc3cc(-c4c(C)noc4C)c(OC[C@H]4CCNC4)cc3c2n1[C@H](C)c1ccccc1 | Bromodomain-containing protein 2, BD2 (BRD2, Homo sapiens, UniProt P25440) | binding, SPR |  | Kd | 3210 nM
CCCOc1ccc(-c2ccc(C#N)cc2)cc1 | Monocarboxylate transporter 10 (Rattus norvegicus, UniProt Q91Y77) | binding, ITC | pH 7.4 | Kd | 356 nM
Cc1nn2c(N3CCN(CCO)CC3)cc(-c3ccccc3)nc2c1-c1ccccc1 | GTPase KRas (KRAS, Homo sapiens, UniProt P01116) | binding, MST |  | Kd | 1900 nM
O=C(O)CC[C@H](NC(=O)N[C@@H](CCC(=O)NCCOCCOCCNC(=S)Nc1ccc2c(c1)C(=O)OC21c2ccc(O)cc2Oc2cc(O)ccc21)C(=O)O)C(=O)O | Glutamate carboxypeptidase 2 (FOLH1, Homo sapiens, UniProt Q04609) | cell-free assay, FP |  | Kd | 0.9 nM

A few entries again:
Compound | target | assay | conditions | endpoint | result
FC(F)OC(Cl)C(F)(F)F (stereo not shown) | Cystathionine beta-synthase (CBS, Homo sapiens, UniProt P35520) | binding, ITC |  | Kd | 16600 nM
CCN1CCN(c2cc(N3CCN(CC)CC3)nc(NCCNc3ccnc4cc(Cl)ccc34)n2)CC1 | Nuclear receptor subfamily 4 group A member 2 (Homo sapiens, UniProt P43354) | binding, ITC |  | Kd | 1500 nM and 2500 nM
